Published values of several laboratories.
A part holds a random share of what one study measured. Substitutions count along the parent as printed.

Series 1
Target: RNA binding protein fox-1 homolog 2, RRM domain, GST-SBP tag (RBFOX2, Homo sapiens, UniProt O43251-10, residues 100-194)
Technique: RNA Bind-n-Seq
Molecule type: RNA
Medium: in vitro
Concentration: 365 nM
Notes: natural RNA segment, single round, ends assumed
Relative to: no-protein control
Direction: higher = stronger binding
Constant ends, left off below: GGGAGUUCUACAGUCCGACGAUC … UGGAAUUCUCGGGUGCCAA
Construct (chain): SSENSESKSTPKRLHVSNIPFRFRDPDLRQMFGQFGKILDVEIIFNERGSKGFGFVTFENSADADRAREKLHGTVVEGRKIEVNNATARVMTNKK
| Sequence | RBNS enrichment (R) |
| --- | --- |
| GUGGUAAGGAAAGAAACAGGAGGUGCUAGAGGAACCAAGAGUUCUGGUCAUUAACUCAGUCAUGCCGAGCACCAGGGCGCUGGUUCUGAAACGGUUAAGAGAAAGGCUCU | 0.973 |
| GAAAGUUAAAACUAGCUUUAGAGUAAGGAUGAGAAACUUGAGUGUUUUUAAUUUAAAGAUAAAAGCCUGUGUUUUACACAUUCUUUUUUGGUGUUCAUAGCUUCUUCUCA | 0.345 |
| CUGAUGUUGUGUCCGUUUUGUAUUUUAUCUUUUGUUAAAGAUACAUAAAUGACAAUACUUAACUGUGGUGGUUUGUAGCAUUAUUUCUAAUAUUUGGCAGAAAAGUUGUU | 0.476 |
| GGCAUGGUAAAUAAUAUAUCAAUGUUUAUGUAGUCUGUUACAGAAACAGCUAUAGAUAACAUUAUCCAGUGAAGAGCAAAAUUCAAGCUUUAGAAAAUAUUCAUGCAUGC | 0.894 |
| UAAUCUUGCUGUCUGCCUUCCUAGCCUUUUCCACCUUGGCUUGCCUCUGAGGGUAGAUUUUUUUUUUUAAUCCGGUCCCUUGGAUUUAAAAAUAAAAUUAAUUUUCUGUU | 0.572 |
| AGUGGUAUGUAAAUGUUGACUCGGAUCACAAUCAUGUAGCAGAGGGCACUGGGCCUGUUGCCUGCCAGUCAUGGACACCCAUGUGAAAAAUCCUGAUUUCCAGCUCAUGG | 3.07 |
| CUGUUUAACUUGGCCAAUCUAGGCCAUCAACCUAGAUAACUUAGUCCUUUUCAUGUAAAUUUUUGUGCAAGCACAAUCUACUUUAACUGCCUUGCCUGACCAAAUUAAAU | 0.348 |
| CUUCUUUCUGAGAGUUGGCUCAGGCAGACAAGAGCUGCUGUCCUUUUAGGAAUAUGUUCAAUGCAAAGUAAAAAAAUAUGAAUUGUCCCCAAUCCCGGUCAUGCUUUUGC | 0.546 |
| CAUCAGUGCACUUCUCCCAGGGGUGCUCACUGAAGCUGGUCCACGUCUAUAAACAGGUGACACUGGCUGCAGCAAAAAGCCAUUCGAUCCACACAAAUUGAUCUUCUAUC | 0.199 |
| CCUCCAGCCCUUCACUUCCCACUGAGGUUGUCUCUUUACUGCCUGGCAUGACAUCUAAAAGCUCACUGCCUAUGCAGGGCUCACUCCCCACCAUCCGGAUGGCCUCCCAC | 0.707 |
| UAUCAAGGCCACUGUGGUAGUGCUUCCCUGAGCAUUCAAUCCCUGGAUCCUGUAGGCCCUGGGAGGGGGUCCCCUUUGUGAAAUAUCAAUGCUGUUUGGGGCCCUCCCCC | 0.253 |
| AGGAAUGCUUUUAGCAGAAAACAGGAAAGAAAAUAUCCCUUAAAAAUUUUUUUUGAAUGUGUGGAAGUAAUUUUAGUAUAAUUAGAUUUUUUCCAUAUUUUUGAAAGAUU | 1.35 |

Series 2
Target: Histone acetyltransferase KAT6A, both winged helices, GST fusion (KAT6A, Homo sapiens, UniProt Q92794, residues 1-181)
Technique: protein binding microarray
Molecule type: double-stranded DNA, one strand shown
Medium: in vitro
Concentration: not given
Notes: 8-mer, flanks averaged, mean of 2 arrays, mostly near background
Relative to: not given
Direction: higher = stronger binding
Residues (chain): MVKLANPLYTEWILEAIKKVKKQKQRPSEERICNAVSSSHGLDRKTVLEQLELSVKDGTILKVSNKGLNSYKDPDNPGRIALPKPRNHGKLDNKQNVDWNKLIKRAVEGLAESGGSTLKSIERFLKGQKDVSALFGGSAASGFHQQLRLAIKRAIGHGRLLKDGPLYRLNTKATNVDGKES
| Sequence | E-score |
| --- | --- |
| GACCATTA | -0.0553 |
| TAAGCCCA | -0.174 |
| TGGCCACA | -0.215 |
| GTTGGAGA | -0.107 |
| ACCTCCGT | -0.00241 |
| AAGCCGTC | 0.315 |
| ATTGGCGA | -0.0197 |
| GCACAGCA | -0.0449 |
| TTCCTCAA | -0.0308 |
| ACAGGGCT | -0.0788 |
| ACAAAGGG | -0.244 |
| AGTGGGCC | -0.174 |
| AGGGTCCA | -0.106 |
| AGGGCCCA | -0.258 |
| GAATTGCC | 0.101 |
| GTGATGTA | -0.0211 |

Series 3
Target: ABI1, truncated, D143A, DHFR fusion (Arabidopsis thaliana)
Technique: DHFR PCA, deep sequencing
Medium: yeast
Notes: methotrexate growth selection, single substitutions
Added: (+)-ABA 710 µM
Relative to: wild-type fitted maximum
Direction: higher = stronger binding
Starting sequence: PYL1, truncated, DHFR fusion (Arabidopsis thaliana); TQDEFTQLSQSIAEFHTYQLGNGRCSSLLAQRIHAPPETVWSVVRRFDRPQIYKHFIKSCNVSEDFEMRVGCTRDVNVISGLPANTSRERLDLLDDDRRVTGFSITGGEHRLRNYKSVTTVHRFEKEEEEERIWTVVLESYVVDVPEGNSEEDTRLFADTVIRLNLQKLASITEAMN; partner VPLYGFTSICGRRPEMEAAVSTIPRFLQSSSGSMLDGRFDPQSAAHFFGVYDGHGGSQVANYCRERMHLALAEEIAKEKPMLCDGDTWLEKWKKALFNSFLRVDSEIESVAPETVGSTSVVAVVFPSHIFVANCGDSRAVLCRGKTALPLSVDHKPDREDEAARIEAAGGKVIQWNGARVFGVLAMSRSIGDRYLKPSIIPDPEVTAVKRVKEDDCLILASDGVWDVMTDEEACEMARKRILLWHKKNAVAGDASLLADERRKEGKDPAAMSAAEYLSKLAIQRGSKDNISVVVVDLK
| Substitution | relative binding score |
| --- | --- |
| T86L | 96.5% |
| R45S | 92.7% |
| F103T | 11.7% |
| R98Y | 92.7% |
| S9H | 84.4% |
| Y115G | -0.282% |
| L28Y | 84.7% |
| D159H | 70.3% |
| N149M | 55.2% |
| S42Q | 103% |
| R69A | 101% |
| G21V | 99.8% |

Series 4
Target: TAR DNA-binding protein 43, full length, His tag (TARDBP, Homo sapiens, UniProt Q13148, residues 1-414)
Technique: RNA Bind-n-Seq
Molecule type: RNA
Medium: in vitro
Concentration: 20 nM
Notes: 6-mer, flanks averaged, single round
Added: 150 mM KCl
Relative to: input library
Direction: higher = stronger binding
| Sequence | 6-mer enrichment (R) |
| --- | --- |
| CAACAA | 0.807 |
| AGUUGC | 0.763 |
| UUUUAU | 0.723 |
| CCUGUU | 0.619 |
| ACUUUC | 0.555 |
| GGACCU | 0.962 |
| ACAGAU | 0.628 |
| GGUUGC | 1.34 |
| ACCUGA | 0.639 |
| CAUUUU | 0.677 |
| AAAGAG | 0.956 |
| GUAAAU | 0.694 |
| CGCCAC | 0.719 |
| GGUCGG | 3.16 |
| UAGCGC | 0.812 |
| GAUCAA | 0.661 |
| CACUAG | 0.684 |
| GUUGAU | 0.773 |
| GUAACC | 0.66 |
| CUAUGU | 0.647 |
| AAGAAG | 1.01 |
| UCUCUA | 0.537 |
| AGAAGA | 0.922 |
| GUACCA | 0.692 |

Series 5
Target: Interferon regulatory factor 5, full length, phosphomimetic (IRF5, Homo sapiens, UniProt Q13568-2, residues 1-514, S451D/S453D/S456D/S462D)
Technique: protein-binding microarray
Molecule type: double-stranded DNA, one strand shown
Medium: in vitro
Concentration: 940 nM top
Notes: 60-bp whole probe
Added: salmon DNA 0.4 mg/ml
Relative to: random background probes
Direction: higher = stronger binding
Constant ends, left off below: GCCTAGCAC … GTCTTGATTCGCTTGACGCTGCTG
| Sequence | fitted relative affinity |
| --- | --- |
| GACGGTTTCCGTCTCGGGACGTGCTAG | 1.91 z-score |
| ATATATATGAATATATATTAGTGCTAG | 0.0572 z-score |
| AGGCATCTCGGAGATCTCGAAGTGCTA | -0.47 z-score |
| TTAGAACTGAGCCTCGATTAGTGCTAG | -0.55 z-score |
| ATAGGTCTCGGTATCGGTTAGTGCTAG | 7.1 z-score |
| GGCGAACTGAGACTGGAGACGTGCTAG | -0.391 z-score |
| GACGCTATCGACTATCGGGACGTGCTA | -0.00416 z-score |
| GACGATATCGGGTTTGGAGACGTGCTA | -0.119 z-score |
| AGAGATGTGGGACTCACCTAGTGCTAG | -0.491 z-score |
| GATGGCCTCTTGCTCAGCCCGTGCTAG | -0.547 z-score |
| GACGTTTTCCTTTTCCTGACGTGCTAG | 1.48 z-score |
| GACGGACTGGGTAGCGGGACGTGCTAG | -0.367 z-score |
| TTAGAACTGGGTTTCGGTTAGTGCTAG | 6.52 z-score |
| GACGAATTGAGACTGGAGACGTGCTAG | -0.231 z-score |
| ACCATTTTGTTTTTCATTATGTGCTAG | 1.4 z-score |
| TCATTTTTTGTAATCGAACTGTGCTAG | 0.506 z-score |
| GACGATATCAGTATCGAGAAGTGCTAG | 1.62 z-score |

Series 6
Target: Transcription factor Sp1 (SP1, Homo sapiens, UniProt P08047, residues 1-785, full length assumed)
UniProt P08047, sequence (whole entry, looked up): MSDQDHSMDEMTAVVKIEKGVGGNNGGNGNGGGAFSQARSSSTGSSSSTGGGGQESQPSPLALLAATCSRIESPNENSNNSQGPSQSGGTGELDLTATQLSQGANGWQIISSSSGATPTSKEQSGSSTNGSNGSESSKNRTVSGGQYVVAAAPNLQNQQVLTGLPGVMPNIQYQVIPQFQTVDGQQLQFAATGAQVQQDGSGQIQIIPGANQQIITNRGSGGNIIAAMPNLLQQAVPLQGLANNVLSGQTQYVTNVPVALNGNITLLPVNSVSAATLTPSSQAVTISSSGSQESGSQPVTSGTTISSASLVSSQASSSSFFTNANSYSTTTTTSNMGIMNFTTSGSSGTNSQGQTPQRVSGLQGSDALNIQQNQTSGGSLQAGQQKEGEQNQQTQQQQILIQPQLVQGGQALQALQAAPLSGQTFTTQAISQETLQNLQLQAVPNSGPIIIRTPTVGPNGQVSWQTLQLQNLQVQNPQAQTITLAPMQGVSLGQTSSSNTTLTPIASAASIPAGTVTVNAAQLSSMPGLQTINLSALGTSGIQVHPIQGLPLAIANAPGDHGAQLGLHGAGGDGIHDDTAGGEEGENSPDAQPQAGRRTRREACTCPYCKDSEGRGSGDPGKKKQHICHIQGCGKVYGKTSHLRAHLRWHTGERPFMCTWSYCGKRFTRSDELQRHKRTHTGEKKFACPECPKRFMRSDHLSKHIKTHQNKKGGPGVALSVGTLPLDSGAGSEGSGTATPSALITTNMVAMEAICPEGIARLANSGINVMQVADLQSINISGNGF
Technique: protein-binding microarray
Molecule type: double-stranded DNA, one strand shown
Medium: in vitro
Concentration: not given
Notes: k-mer, scored over probes, only values ≥0.25
Direction: higher = stronger binding
| Sequence | E-score |
| --- | --- |
| AAACATAC | 0.28 |
| CCGCCCAA | 0.333 |
| ATATATAG | 0.255 |
| AAACTTGC | 0.256 |
| GATACATA | 0.261 |
| CACCCTCC | 0.367 |
| AGGGCGTG | 0.38 |
| TCCGCCCA | 0.422 |
| GGGCGTGA | 0.277 |
| GTATCTAA | 0.283 |
| CCATCACC | 0.262 |
| GGTGGGTA | 0.348 |
| ACCCCACC | 0.43 |
| CATATATG | 0.348 |
| CATGTACG | 0.308 |
| ACACCCAT | 0.326 |
| TAGATACA | 0.275 |

Excerpt of the above (series 4):
| Sequence | 6-mer enrichment (R) |
| --- | --- |
| GGUUGC | 1.34 |
| CCUGUU | 0.619 |
| AAGAAG | 1.01 |
| CAACAA | 0.807 |
| ACUUUC | 0.555 |
| CAUUUU | 0.677 |
| UAGCGC | 0.812 |
| AGAAGA | 0.922 |
| ACCUGA | 0.639 |
| AGUUGC | 0.763 |
| GUAAAU | 0.694 |
| CUAUGU | 0.647 |
